# Measurements gathered from unrelated publications.
# “And” joins repeats or separate records; there may be more than shown. ± marks the error that the study gave.
SMILES,target or system,test,test system,setting,how to read,measurement,result
C#CCO/N=C(\C(=O)N[C@@H]1C(=O)N(OS(=O)(=O)O)C1(C)C)c1csc(N)n1,Salmonella enterica Typhi,agar dilution,susceptible,,,MIC,0.5 µg/mL
COc1ccc(C(=O)OC2CC(C(=O)OC3CCC4(C)C(CCC5(C)C4CC=C4C6CC(C)(C)CCC6(C(=O)NCc6ccccc6)CCC45C)C3(C)C)N(C(=O)c3ccc(OC)c(OC)c3)C2)cc1OC (stereo not shown),Influenza A virus,,"MDCK, A/WSN/1933 (H1N1)",,relative to: CC50 over EC50,selectivity index,> 24.9
CC(C)CC(C(=O)N1CC2(CC1C#N)C(=O)Nc1ccccc12)N(C)C(=O)c1cc2c(F)cc(F)c(F)c2[nH]1 (stereo not shown),Human coronavirus 229E,cytopathic effect,MRC5,0.3383 µM,,inhibition,101%
CCc1ccn2c(C(=O)N(C)Cc3ccccc3)c(C)nc2c1,Bacillus subtilis,microbial growth,ATCC6633,"2 mM, 20 h",,inhibition zone,0 mm
CC1(C)CCC2(C(=O)NCc3ccccc3)CCC3(C)C(=CCC4C5(C)CCC(OC(=O)C6CC(OC(=O)c7ccc(F)c(F)c7)CN6C(=O)c6ccc(F)c(F)c6)C(C)(C)C5CCC43C)C2C1 (stereo not shown),Influenza A virus,,"MDCK, A/WSN/1933 (H1N1)",,relative to: CC50 over EC50,selectivity index,> 22.4
CN[C@@H]1[C@H](O)[C@H](NC)[C@H]2O[C@]3(O)[C@H](O[C@@H]2[C@H]1O)O[C@H](C)C[C@H]3NC(=O)Cc1cc(Cl)ccn1,Burkholderia cepacia,"microbial growth, broth dilution",ATCC25416,,,MIC,> 200 µg/mL
CC1(C)[C@H](NC(=O)/C(=N\OC2(C(=O)O)CCCC2)c2csc(N)n2)C(=O)N1OS(=O)(=O)O,Salmonella enterica Typhi,agar dilution,susceptible,,,MIC,0.5 µg/mL
Cc1cc(Oc2nc(N3CC[C@@H](c4ccncc4)C3)ncc2F)[nH]n1,Mycobacterium tuberculosis,OD,H37Rv PurF CRISPRi knockdown,"0.007813 µM, with: anhydrotetracycline low",,normalised growth,9% and 7%
O=C1NC2(CC2)COc2ncc(F)cc2[C@H]2COCCN2c2ccn3ncc1c3n2,,,"Sprague-Dawley rat, female, spleen","oral, 10 mg/kg/day, 4 weeks",,organ weight,1.14 ± 0.224 g
CC1(C)[C@H](NC(=O)/C(=N\OCc2c(Cl)cccc2Cl)c2nsc(N)n2)C(=O)N1OS(=O)(=O)O,Salmonella enterica Typhi,agar dilution,susceptible,,,MIC,4 µg/mL
Cc1ccc(CNC(=O)C(=O)c2c(C)nc3ccc(C)cn23)cc1,Bacillus subtilis,microbial growth,ATCC6633,"2 mM, 20 h",,inhibition zone,0 mm
Oc1ccc(Br)cc1-c1nc2cc(C(F)(F)F)ccc2s1,human coronavirus 229E,,,"concentration not given, 12 h, compound not removed, unit not given",relative to: DMSO,extracellular viral RNA,0.778 and 0.819 and 1.09
Cc1ccc2nc(C)c(C(=O)C(=O)N(C)C)n2c1,Bacillus subtilis,microbial growth,ATCC6633,"2 mM, 20 h",,inhibition zone,0 mm
CC1(C)CCC2(C(=O)NCc3ccccc3)CCC3(C)C(=CCC4C5(C)CCC(OC(=O)C6CC(OC(=O)c7ccc(O)c(O)c7)CN6C(=O)C6CC(O)C(O)C(O)C6)C(C)(C)C5CCC43C)C2C1 (stereo not shown),Influenza A virus,,"MDCK, A/WSN/1933 (H1N1)",,relative to: CC50 over EC50,selectivity index,11.8
Cc1ccc(NS(=O)(=O)c2c(C(=O)N3CCCCCC3)c(C)n(C)c2C)c(Cl)c1,Fowlpox virus,viral infection,CEF,100 µM,relative to: untreated,infection,101% and 100%
CN(C)c1ccc(-c2nc3ccccc3n2CCCOc2ccccc2)cc1,Mycobacterium bovis BCG,,,concentration not given,,activity,inactive
Cc1ccc(N2CC3CC(C2)N3C)cc1C(=O)NC1(c2ccc3c4c(cccc24)C(=O)N3C)CC1,Human coronavirus 229E,viral replication,Huh-7,,,IC50,3.6 µM
CN[C@@H]1[C@H](O)[C@H](NC)[C@H]2O[C@]3(O)[C@H](O[C@@H]2[C@H]1O)O[C@H](C)C[C@H]3NC(=O)Cc1ccc(F)cn1,Burkholderia cepacia,"microbial growth, broth dilution",ATCC25416,,,MIC,> 200 µg/mL
Cc1ccc2nc(C)c(C(=O)NCc3ccccc3)n2c1,Bacillus subtilis,microbial growth,ATCC6633,2 mM,,inhibition zone,0 mm
CC1(C)CCC2(C(=O)NCc3ccccc3)CCC3(C)C(=CCC4C5(C)CCC(OC(=O)C6CC(OC(=O)c7ccc(OCc8ccccc8)c(OCc8ccccc8)c7)CN6C(=O)c6ccc(OCc7ccccc7)c(OCc7ccccc7)c6)C(C)(C)C5CCC43C)C2C1 (stereo not shown),Influenza A virus,viral replication,"MDCK, A/WSN/1933 (H1N1)",48 h,,EC50,15.4 ± 1.81 µM
CC1(C)[C@H](NC(=O)/C(=N\OCCN)c2csc(N)n2)C(=O)N1OS(=O)(=O)O,Salmonella enterica Typhi,agar dilution,susceptible,,,MIC,2 µg/mL
CCCC/C=C/C(=O)N[C@@H](Cc1csc2ccccc12)C(=O)N[C@H]1COC(=O)[C@@H]2C[C@@H](C)CN2C(=O)[C@H](C)NC(=O)[C@@H]2CCCCN2C(=O)[C@@H]2CCCN2C1=O,human coronavirus 229E,,Huh-7 CLPP knock-out 2,"concentration not given, unit not given",relative to: DMSO,RNA release,0.00521 and 0.00631 and 0.00528
Cc1ccc(CNC(=O)Cc2c(C)nc3ccc(C)cn23)cc1,Micrococcus luteus,microbial growth,ATCC10240,"2 mM, 20 h",,inhibition zone,0 mm
CN[C@@H]1[C@H](O)[C@H](NC)[C@H]2O[C@]3(O)[C@H](O[C@@H]2[C@H]1O)O[C@H](C)C[C@H]3NC(=O)Cc1ccc(Cl)cn1,Burkholderia cepacia,"microbial growth, broth dilution",ATCC25416,,,MIC,> 200 µg/mL
Cc1ccc(-c2nc3ccc(C)cn3c2CC(=O)NCc2ccc(N(C)C)cc2)cc1,Bacillus subtilis,microbial growth,ATCC6633,"2 mM, 20 h",,inhibition zone,15 mm
O=C(Nc1ccccc1SSc1ccccc1NC(=O)c1ccccc1)c1ccccc1,Influenza A virus,viral replication,"MDCK, A/NWS/33 (H1N1)",24 h,,EC50,110 ± 9.2 µg/mL
CC1(C)[C@H](NC(=O)/C(=N\OCc2c(Cl)cccc2Cl)c2csc(N)n2)C(=O)N1OS(=O)(=O)O,Salmonella enterica Typhi,agar dilution,susceptible,,,MIC,1 µg/mL
CCc1ccn2c(C(=O)NC(C)c3ccccc3)c(C)nc2c1 (stereo not shown),Bacillus subtilis,microbial growth,ATCC6633,2 mM,,inhibition zone,0 mm
